Values quoted from earlier work that unrelated publications cite.
Compare with care: the assays were run in different laboratories. Numbers after ± are the reported error.

Structure (SMILES) | target or system | test | system | setting | quantity | result
COc1c(O)cc2oc(-c3ccccc3)cc(=O)c2c1O | SARS-CoV-2 | viral replication | – | literature value | EC50 | 20 to 40 µM
CO/N=C(\C(=O)N[C@@H]1C(=O)N2C(C(=O)O)=C(COC(C)=O)CS[C@H]12)c1csc(N)n1 | Pseudomonas aeruginosa | – | clinical isolate RKI-No_82/10 | – | MIC | > 16 µg/mL
Cc1nc2cccc(OCC(C)(C)C(=O)NC(C)C)c2c(N)c1C(=O)O.Cc1nc2cccc(OCC(C)(C)C(=O)NC(C)C)c2c(N)c1C(=O)O.O.O.O=S(=O)(O)O | human peripheral blood lymphocytes | – | – | with and without S9 | micronucleus test | negative
CCC(CC)COC(=O)[C@H](C)N[P@](=O)(OC[C@H]1O[C@@](C#N)(c2ccc3c(N)ncnn23)[C@H](O)[C@@H]1O)Oc1ccccc1 | SARS-CoV-2 | viral replication | Calu-3 | – | EC90 | 0.7 ± 0.2 µM
CCN(CC)CCOc1ccc(C(O)(Cc2ccc(Cl)cc2)c2ccc(C)cc2)cc1 (centres unmarked) | Ebola virus | viral replication, eGFP reporter virus | Vero E6 | – | IC50 | 1.92 µM
Oc1ccc(-c2[o+]c3cc(O)cc(O)c3cc2O)cc1 | SARS-CoV-2 | viral replication | – | literature value | EC50 | 50 to 100 µM
Fc1ccccc1Cc1nc(-c2nc(C(F)(F)F)n[nH]2)cn2ccnc12 | – | equilibrium dialysis | mouse plasma | 1 and 10 µM | plasma protein binding | 97.3%
Nc1ncnc2c1ncn2[C@@H]1O[C@H](COP(=O)(O)OP(=O)(O)OP(=O)(O)O)[C@@H](O)[C@H]1O | YcaO (Methanocaldococcus jannaschii) | substrate, PNP-coupled | – | pH 7.5, 25 °C, together with: 500 µM peptide substrate | Km | 117 ± 11 µM

Repeated from above:
Structure (SMILES) | target or system | test | system | setting | quantity | result
CO/N=C(\C(=O)N[C@@H]1C(=O)N2C(C(=O)O)=C(COC(C)=O)CS[C@H]12)c1csc(N)n1 | Pseudomonas aeruginosa | – | clinical isolate RKI-No_82/10 | – | MIC | > 16 µg/mL
